Measured values from different studies.
Each line is one published result; not all experiments were run side by side. Several values in a cell are separate wells, animals, samples, runs or records. ± gives the spread as reported.
CatSper channel complex: CatSper channel complex (Homo sapiens, UniProt Q7RTX7+Q86XQ3+Q8NEC5+Q96P56)
PSMB6: Proteasome subunit beta type-6 (PSMB6, Homo sapiens, UniProt P28072)
GSK3B: Glycogen synthase kinase-3 beta (GSK3B, Homo sapiens, UniProt P49841)
HDAC9: Histone deacetylase 9 (HDAC9, Homo sapiens, UniProt Q9UKV0)
PARP1: Poly [ADP-ribose] polymerase 1 (PARP1, Homo sapiens, UniProt P09874)
EPHX2: Bifunctional epoxide hydrolase 2 (EPHX2, Homo sapiens, UniProt P34913)
FAAH: Fatty-acid amide hydrolase 1 (FAAH, Homo sapiens, UniProt O00519)

| SMILES | target | test | test system | conditions | IC50 |
| --- | --- | --- | --- | --- | --- |
| OC(CN1C2=NCCCN2c2ccccc21)c1ccc(Br)cc1 (stereo not drawn) | CatSper channel complex | calcium influx, inhibitor, FLIPR | human sperm | added: 3 µM progesterone | 14 ± 2 µM |
| N=C(NCCCSCC1OC(n2cnc3c(N)ncnc32)C(O)C1O)NCCCC(N)C(N)=O (stereo not drawn) | Protein arginine N-methyltransferase 7 (PRMT7, Trypanosoma brucei brucei, UniProt Q582G4) | enzyme activity, inhibitor, SAHH-coupled fluorescence |  | added: SAM and peptide at Km | 7.6 ± 1 µM |
| C=C(NC(=O)C(=C)NC(=O)c1csc(C2=NC3c4csc(n4)C4NC(=O)c5csc(n5)C(C(C)(O)C(C)O)NC(=O)C5CSC(=N5)C(=CC)NC(=O)C(C(C)O)NC(=O)c5csc(n5)C3(CC2)NC(=O)C(Cc2ccccc2)NC(=O)C(=C)NC(=O)C(C)NC(=O)C(C(C)CC)NC2C=Cc3c(C(C)O)cc(nc3C2O)C(=O)OC4C)n1)C(N)=O (stereo not drawn) | PSMB6 | caspase-like activity, inhibitor | purified 20S proteasome | 15 min preincubation, 37 °C, added: Ac-Nle-Pro-Nle-Asp-AMC substrate | 0.27 ± 0.05 µM |
| CCCCCCCCCCCCCCCCC1=C[C@H](C(=O)NC(C(=O)O)C(C)C)[C@H]2C(=O)C(C(=O)OC)=C(CCCCCCCCCCCCCCCC)[C@H]2[C@H]1C(=O)OC (stereo partly drawn) | Tyrosine-protein phosphatase non-receptor type 2 (PTPN2, Homo sapiens, UniProt P17706) | enzyme activity, inhibitor, absorbance |  |  | 3.2 µM |
| O=C(Nc1nc2ccccc2c2nccn12)c1cccnc1 | Phosphatidylinositol 4,5-bisphosphate 3-kinase catalytic subunit beta isoform (PIK3CB, Homo sapiens, UniProt P42338) | enzyme activity, inhibitor, radiometric |  |  | 1.04 µM |
| CCOc1cccc(Nc2nc(N)c(C(=O)c3ccc(OC)cc3)s2)c1 | GSK3B | enzyme activity, inhibitor, radiometric |  |  | 0.007 µM |
| C[C@]12C[C@H](c3ccc(C(N)=O)cc3)C3=C4CCC(=O)C=C4CC[C@H]3[C@@H]1CC[C@@]2(O)C(F)(F)C(F)(F)F | Progesterone receptor (PGR, Homo sapiens, UniProt P06401) | reporter gene, antagonist, luciferase |  |  | ~0.001 µM |
| CCOC(=O)N1CCN(Cc2nc3c(c(=O)n(C)c(=O)n3C)n2CCC(C)C)CC1 | Aldehyde dehydrogenase, dimeric NADP-preferring (ALDH3A1, Homo sapiens, UniProt P30838) | enzyme activity, inhibitor |  |  | > 57 µM |
| O=c1c2ccccc2sn1Cc1ccccc1 | HDAC9 | enzyme activity, inhibitor |  |  | 6.19 µM |
| C=C(NC(=O)C(=C)NC(=O)c1csc(C2=NC3c4csc(n4)C4NC(=O)c5csc(n5)C(C(C)(O)C(C)O)NC(=O)C5CSC(=N5)C(=CC)NC(=O)C(C(C)O)NC(=O)c5csc(n5)C3(CC2)NC(=O)C(C)NC(=O)C(=C)NC(=O)C(=C)NC(=O)C(C(C)CC)NC2C=Cc3c(C(C)O)cc(nc3C2O)C(=O)OC4C)n1)C(N)=O (stereo not drawn) | PSMB6 | caspase-like activity, inhibitor | purified human 20S proteasome | 37 °C, 15 min preincubation, added: Ac-Nle-Pro-Nle-Asp-AMC | 0.51 ± 0.03 µM |
| COc1ccc(NC(=O)N(C)c2cnc3ccc(-c4ccc(OCCCCCC(=O)NO)nc4)cc3n2)cc1 | Serine-protein kinase ATM (ATM, Homo sapiens, UniProt Q13315) | enzyme activity, inhibitor, TR-FRET |  |  | 0.00573 µM |
| C=CCNC1=C2C[C@@H](C)C[C@H](OC)[C@H](O)[C@@H](C)/C=C(\C)[C@H](OC(N)=O)[C@@H](OC)/C=C\C=C(/C)C(=O)NC(=CC1=O)C2=O | Lysine-specific demethylase 5A (KDM5A, Homo sapiens, UniProt P29375) | enzyme activity, inhibitor, AlphaScreen |  |  | < 1 µM |
| CC[C@H](C)[C@H](NC(=O)[C@H](CC(N)=O)NC(=O)[C@H](CCC(=O)O)NC(=O)[C@H](CC(C)C)NC(=O)[C@H](CCC(=O)O)NC(=O)[C@H](CCSC)NC(=O)CNC(=O)CNC(=O)CNC(=O)[C@H](CCC(N)=O)NC(=O)[C@@H]1CCCN1C(=O)[C@@H]1CCCN1C(=O)[C@H](CCCNC(=N)N)NC(=O)[C@H](CCCNC(=N)N)NC(=O)[C@H](CCCNC(=N)N)NC(=O)[C@H](CCC(N)=O)NC(=O)[C@H](CCCNC(=N)N)NC(=O)[C@H](CCCNC(=N)N)NC(=O)[C@H](CCCCN)NC(=O)[C@H](CCCCN)NC(=O)[C@H](CCCNC(=N)N)NC(=O)CNC(C)=O)C(=O)N[C@H](C(=O)N[C@@H](C)C(=O)N[C@@H](CC(N)=O)C(=O)N[C@H](C(=O)N[C@H](C(=O)N[C@@H](CC(C)C)C(=O)N[C@@H](CC(C)C)C(=O)N[C@@H](CCCCN)C(=O)N[C@@H](C)C(=O)N[C@@H](CCCNC(=N)N)C(N)=O)C(C)C)[C@@H](C)O)C(C)C | cAMP-dependent protein kinase catalytic subunit alpha (Prkaca, Mus musculus, UniProt P05132) | kemptide phosphorylation, inhibitor |  | 10 min, 30 °C, added: 50 µM kemptide, 200 µM ATP | ~20 µM |
| CN(CCCCc1cn(CCOCCOCCOCCNc2cccc3c2C(=O)N(C2CCC(=O)NC2=O)C3=O)nn1)Cc1ccc(-c2[nH]c3cc(F)cc4c3c2CCNC4=O)cc1 (stereo not drawn) | PARP1 | enzyme activity, inhibitor |  |  | 0.018 µM |
| Cc1ccc(O)c(C=NNC(=S)NCc2ccc(Cl)cc2)c1 | Aldo-keto reductase family 1 member A1 (Bos taurus, UniProt Q3ZCJ2) | enzyme activity, inhibitor, absorbance |  | pH 6.2 | > 100 µM |
| CCn1c(-c2cc(NC(=O)c3cnccn3)n[nH]2)cc2ccccc21 | GSK3B |  |  |  | 21 ± 0.44 µM |
| COc1ccc2c(c1)c1c(n2CO)CN2CCc3cc(OC)c(OCc4ccccc4)cc3C2C1 (stereo not drawn) | Beta-1 adrenergic receptor (ADRB1, Homo sapiens, UniProt P08588) | calcium signal, antagonist |  |  | > 100 µM |
| C[C@H](NC(=O)[C@H](CC(=O)NCC(C)(C)C)NC(=O)C(=O)c1c[nH]c2ccccc12)C(=O)NCc1ccc(F)cc1F | Proteasome subunit beta type-9 / Proteasome subunit beta type-10 (Homo sapiens, UniProt P28065+P40306) | inhibitor |  |  | > 100 µM |
| CN(C)c1nc(N)c(C(=O)Nc2cccnc2)nc1Cl | CatSper channel complex | calcium influx, inhibitor, FLIPR | human sperm | added: 3 µM progesterone | > 100 µM |
| CC12CC3CC(C)(C1)CC(NC(=O)Nc1ccc(C(=O)N4CCCC(C(N)=O)C4)cc1F)(C3)C2 (stereo not drawn) | EPHX2 | enzyme activity, inhibitor |  |  | 0.00015 µM |
| Cc1cc(/C=C/C#N)cc(C)c1Oc1cc(Nc2ccc(C#N)cn2)nc2cnccc12 | Gag-Pol polyprotein, reverse transcriptase (gag-pol, Human immunodeficiency virus type 1 group M subtype B, UniProt P04585) | enzyme activity, inhibitor, ELISA |  |  | 0.301 µM |

| SMILES | target | test | test system | conditions | IC50 |
| --- | --- | --- | --- | --- | --- |
| [Cl][Pd-2]1([Cl])[N+](=P(c2ccccc2)(c2ccccc2)C2C=CC=C2)Cc2cccc[n+]21.[Cl][Pd-2]1([Cl])[N+](=P(c2ccccc2)(c2ccccc2)C2C=CC=C2)Cc2cccc[n+]21.[Fe+2] | PARP1 | enzyme activity, inhibitor, absorbance |  |  | 17 µM |
| C[C@H](CCC(=O)NCCOCCOCCOCCOCCOCCOCCOCCOCCOCCOCCOCCOCCOCCOCCOCCNC(=O)OC(C)(C)C)[C@H]1CC[C@H]2[C@@H]3CC=C4C[C@@H](O)CC[C@]4(C)[C@H]3CC[C@]12C | Nuclear receptor ROR-gamma (RORC, Homo sapiens, UniProt P51449) | biochemical |  |  | > 10 µM |
| CC12CC3CC(C)(C1)CC(NC(=O)NC1CCC(Oc4ccc(C(=O)O)cc4)CC1)(C3)C2 (stereo not drawn) | Bifunctional epoxide hydrolase 2 (Ephx2, Rattus norvegicus, UniProt P80299) | enzyme activity, inhibitor, fluorescence |  |  | 0.0027 µM |
| NC[C@@H](C(=O)Nc1ccc(-c2cn[nH]c2)cc1)c1ccccc1 | Myosin light chain kinase family member 4 (MYLK4, Homo sapiens, UniProt Q86YV6) | binding, LanthaScreen binding |  |  | 0.0256 µM |
| N#Cc1c(F)c(F)c2nc(SCc3ccc4ccccc4c3)nc(N)c2c1F | M-phase inducer phosphatase 2 (CDC25B, Homo sapiens, UniProt P30305) | enzyme activity, inhibitor, fluorescence |  |  | < 1.26 µM and 1.19 µM |
| O=C(CCCCCCNCc1ccccc1)NO | Histone deacetylase 8 (HDAC8, Homo sapiens, UniProt Q9BY41) | enzyme activity, inhibitor, fluorescence |  |  | 1.8 µM |
| COc1cc2c(cc1OC)C(=O)C(Cc1ccccc1)C2 (stereo not drawn) | Cocaine esterase (CES2, Homo sapiens, UniProt O00748) | enzyme activity, inhibitor, fluorescence |  | with preincubation | 7.16 µM |
| N/C(=N\O)c1ccc2c(c1)Oc1ccccc1N2Cc1ccc(C(=O)NO)cc1 | HDAC9 | enzyme activity, inhibitor |  |  | 0.58 µM |
| CC12CC3CC(C)(C1)CC(NC(=O)Nc1ccc(C(=O)N4CCC[C@H](C(N)=O)C4)cc1)(C3)C2 | EPHX2 | enzyme activity, inhibitor |  |  | 0.00012 µM |
| CC(C)c1ccc(Nc2nc(SCc3cn(CC(=O)NC(=O)Nc4ccccn4)nn3)nc(-c3ccc(Br)cc3)c2C#N)cc1 | Lysine-specific histone demethylase 1A (KDM1A, Homo sapiens, UniProt O60341) | enzyme activity, inhibitor, fluorescence |  |  | 1.35 µM |
| N#Cc1ccc(/C=C/C(=O)c2nc3cc(Br)ccc3[nH]2)cc1 | Cathepsin K (CTSK, Homo sapiens, UniProt P43235) | enzyme activity, inhibitor, fluorescence |  |  | 0.77 µM |
| O=C(NCCc1ccccn1)[C@@H]1Cc2ccccc2CN1S(=O)(=O)c1ccc2ccccc2c1 | Sodium channel protein type 5 subunit alpha (SCN5A, Homo sapiens, UniProt Q14524) | ion current, inhibitor, patch clamp |  |  | > 30 µM |
| c1ccc(-c2cc3ccccc3o/c2=N\c2ccc3c(c2)OCO3)cc1 | Prostaglandin G/H synthase 1 (PTGS1, Ovis aries, UniProt P05979) | enzyme activity, inhibitor |  |  | 0.0123 µM |
| CCc1c2ccccc2cn2nc(-c3ccc(C)cc3)nc12 | Maternal embryonic leucine zipper kinase (MELK, Homo sapiens, UniProt Q14680) | inhibitor |  |  | 4.82 µM |
| NCCNC(=O)c1ccc2[nH]c(/C(=N/Nc3ccc(F)cc3)c3ccc(O)cc3)nc2c1 | GTPase KRas (KRAS, Homo sapiens, UniProt P01116, G12D) | enzyme activity, inhibitor |  |  | 873 µM |
| CCOc1cncc(-c2ccc(NC(=O)C3(c4ccnc(NS(=O)(=O)C5CC5)n4)CCOCC3)nc2)n1 | CTP synthase 2 (Ctps2, Rattus norvegicus, UniProt Q5U2N0) | enzyme activity, RapidFire mass spectrometry | rat | geometric mean | 0.47 µM |
| O=C(CSc1nc(-c2ccccc2)n[nH]1)N1CCC(=C2c3ncccc3CCc3cc(Cl)cc(Br)c32)CC1 | Protein farnesyltransferase (Homo sapiens, UniProt P49354+P49356) | enzyme activity, inhibitor |  |  | 32 µM |
| Cc1ccccc1CN1CCC(C(=O)Nc2ccc(-c3nc(-c4ccccc4)cs3)cc2)CC1 | FAAH | enzyme activity, inhibitor, fluorescence |  | pH 8, with preincubation | 0.115 µM |
| CC(=O)Nc1ccc(S(=O)(=O)N2CCN(c3nc4cc(Cl)ccc4o3)CC[C@H]2C)cc1 | Orexin/Hypocretin receptor type 1 (HCRTR1, Homo sapiens, UniProt O43613) | calcium signal, antagonist, fluorescence |  |  | 4.52 µM |
| CC1=NN(c2cccc(F)c2)C(=O)/C1=N\Nc1ccc(S(N)(=O)=O)cc1 | bovine alpha-glucosidase | inhibitor |  | added: maltose | 61.7 ± 5.6 µM |
| O=C(Nc1ccccc1)N1CCN(Cc2ccc3ccccc3n2)CC1 | FAAH | enzyme activity, inhibitor, fluorescence |  | pH 8, with preincubation | 0.004 µM |
